Measured values pooled from the literature.
Every numbered part comes from another study and shows a few of its results, in no order. Several values in a cell are separate wells, animals, samples, runs or records.

Sample 1
Cell line: normal organoid sample G
Technique: CellTiter-Glo
Host: human
Sample: normal-adjacent epithelium
Concentration: 0.1 µM
Relative to: DMSO
`Nc1c(C(=O)NCc2ccc(C(=O)NCCCC3CCCCC3)cc2)cnn1-c1ccccc1` gave a viability of 127% and 118%.
The viability of `CN1C(=O)[C@@H](N2CCc3cn(Cc4ccccc4)nc3C2=O)COc2ccccc21` is reported as 104% and 114%.
`O=C(NCCCC1CCCCC1)c1ccc(CNC(=O)c2cnn(-c3ccccc3)c2C(F)(F)F)cc1` has a viability of 116% and 129%.
The viability of `CN1C(=O)[C@@H](N2CCc3c(nn(Cc4ccccc4)c3Br)C2=O)COc2ccccc21` is reported as 102% and 105%.
`COc1cc(N[C@@H]2CCCC[C@]2(O)C(F)(F)F)ccc1F` gave a viability of 103% and 119%.
For `O[C@]1(C(F)(F)F)CCCC[C@H]1Nc1ccc(F)cc1`, the viability was 103% and 107%.
`CS(=O)(=O)N1CCCC(NC(=O)[C@H](CCC2CCCCC2)NC(=O)c2ccc(CNC(=O)c3cnc4ccccn34)cc2)C1` (stereo partly drawn) has a viability of 112% and 138%.

Sample 2
Structure (SMILES): CC(C)(C)c1cnc(CSc2cnc(NC(=O)C3CCN(C(=O)COCCOCCSc4cccc5c4C(=O)N(C4CCC(=O)NC4=O)C5=O)CC3)s2)o1 (stereo not drawn)
Cell line: HH
Technique: CCK-8
The viability was 61.5% and 54.4% (400 nM).
For 100 nM: viability read 98.6% and 99.4%.
It gave 93.7% and 93% for viability (250 nM).
For 200 nM: viability read 95.3% and 98.1%.

Sample 3
Organism: Sarcocystis neurona
Read-out: parasite growth
Concentration: 10 µM
Time: 96 h
Relative to: untreated
For `CS(=O)(=O)c1ccc(-c2cc(Br)sc2-c2ccc(F)cc2)cc1`, “log2 fold change” read -0.25.
Under “log2 fold change”, `CN(C)CCN(Cc1ccccc1)c1ccccn1` is recorded as 0.3.
`COCCCOc1ccnc(C[S+]([O-])c2nc3ccccc3[nH]2)c1C` (stereo not drawn) — result for “log2 fold change”: 0.44.
`CN1CCN(C2=Nc3cc(Cl)ccc3Nc3ccccc32)CC1`: “log2 fold change” 0.36.
For `CCN(CC)CC(=O)Nc1c(C)cccc1C`, “log2 fold change” read 0.4.
For `CC(C)c1ccc2oc3nc(N)c(C(=O)O)cc3c(=O)c2c1`, “log2 fold change” read 2.64.
`Cc1nc2ccc(CN(C)c3ccc(C(=O)N[C@@H](CCC(=O)O)C(=O)O)s3)cc2c(=O)[nH]1` — result for “log2 fold change”: 0.32.
For `C[C@@](Cc1ccc(O)c(O)c1)(NN)C(=O)O`, “log2 fold change” read 0.26.
`CC(C)(O)c1ccccc1CC[C@@H](SCC1(CC(=O)O)CC1)c1cccc(/C=C/c2ccc3ccc(Cl)cc3n2)c1` — result for “log2 fold change”: 0.38.
Under “log2 fold change”, `CC(c1cc2ccccc2s1)N(O)C(N)=O` (stereo not drawn) is recorded as 0.59.
`Cc1[nH]c(=O)c(C#N)cc1-c1ccncc1` — result for “log2 fold change”: 0.37.
For `O=C(O)COCCN1CCN([C@H](c2ccccc2)c2ccc(Cl)cc2)CC1`, “log2 fold change” read 0.36.

Sample 4
Compound: CC(C)C[C@@H]1NC(=O)[C@@H](N(C)C(=O)[C@H](CC2CCC2)NC(=O)[C@@H]2C[C@@H](F)CN2C(=O)C2(C(F)(F)F)CC(F)(F)C2)CCCCNC(=O)C2(CC2)NC(=O)[C@H](Cc2cc(Cl)ccc2Cl)N(C)C1=O
Technique: flow cytometry
A549; 20 nM, 72 h — “cleaved PARP positive cells”: 0.73% and 0.17% and 0.21%.
The “cleaved PARP positive cells” was 0.96% and 0.59% (human CD34+ HSPC; 10 nM, 24 h).
The “cleaved PARP positive cells” was 18.6% and 23% and 21.1% (NCI-H446; 60 nM, 3 days, together with: Mps1 inhibitor 3 nM).
It gave 17% and 20.1% and 19.3% for “cleaved PARP positive cells” (NCI-H446; 6 nM, 3 days, without Mps1 inhibitor).
For NCI-H446; 2 nM, 3 days, together with: Mps1 inhibitor 3 nM: “cleaved PARP positive cells” read 7.09% and 7.52% and 6.82%.
A549; 200 nM, 72 h — “cleaved PARP positive cells”: 1.74% and 0.18% and 0.48%.
For human CD34+ HSPC; 1000 nM, 24 h: “cleaved PARP positive cells” read 0.9% and 1.84%.

For quick reference, copied from above (sample 3):
`Cc1[nH]c(=O)c(C#N)cc1-c1ccncc1` — result for “log2 fold change”: 0.37.
For `O=C(O)COCCN1CCN([C@H](c2ccccc2)c2ccc(Cl)cc2)CC1`, “log2 fold change” read 0.36.
For `CCN(CC)CC(=O)Nc1c(C)cccc1C`, “log2 fold change” read 0.4.
For `CS(=O)(=O)c1ccc(-c2cc(Br)sc2-c2ccc(F)cc2)cc1`, “log2 fold change” read -0.25.
Under “log2 fold change”, `CN(C)CCN(Cc1ccccc1)c1ccccn1` is recorded as 0.3.
